Assay results from different studies.
Each numbered part is a random draw from the data of one study; scales do not carry over between parts. Changes are numbered by the printed parent chain.

Set 1
Target: RNA binding protein fox-1 homolog 2, RRM domain, GST-SBP tag (RBFOX2, Homo sapiens, UniProt O43251-10, residues 100-194)
Method: RNA Bind-n-Seq
Molecule type: RNA
Sample: in vitro
Concentration: 365 nM
Notes: natural RNA segment, single round, ends assumed
Relative to: no-protein control
Reading: higher = stronger binding
Shared flanks, not repeated: GGGAGUUCUACAGUCCGACGAUC … UGGAAUUCUCGGGUGCCAA
Target sequence (chain): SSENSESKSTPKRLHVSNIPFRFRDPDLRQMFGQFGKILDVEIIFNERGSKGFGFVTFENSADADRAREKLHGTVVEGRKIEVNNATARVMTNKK
Strand	RBNS enrichment (R)
AUAUGGUUUUGUCAGGUGUGUAAAUUUGCAAAUUGUUUCCUUUAUAUAUGUAUGUAUAUAUAUAUAUGAAAAUAUAUAUAUAUAUGAAAAAUAAAGCUUAAUUGUCCCAG	1.67
AGGACUGGCUGUAACCUUAAGCCCAUCAAAGUUACUUCCAGCCUGGAGAGAACCUCACCAAACAGCUGGUGUGGCCUGAGGGUGGCCAUGGUGGGAAAUGGGCAUGAGAA	0.778
GGUCCUCUCUUCCACAGUGGCGGGCCCACUCAGCCCCGAGACCACCCAACCUCACCCUCCUGACCCCCAUGUAAAUAUUGUUCUGCUGUCUGGGACUCCUGUCUAGGUGC	0.527
AACCAAAAUGAGCCCACCUUGUGUUCUUCCUAGCUCCACCCUCCCCGUGCUGCUGUGUUCUGCUCCUCCCCACGCUUCCCUGCUAUAGUUCCCAGCUGCUGUAACGGAGC	0.533
CACAUGCACGUAUGCGUGCACACACACACACACACACACACAUCUAAUCACCAUAUUGUAAAAUUUUGUGUUUUUAAAGCCAACUCUUUGCUCCGGUUUUUUCAUACGAC	1.22
UUUGCAAUUUGUGAAACAGUGUAUUGUGUUUUGUAAAAUGAUGUCAUGAAAUGGUGGGUCCUUGGAAACCUCCUUUCCGUUCAGCUCUGCCUCUGUUCUUUCAACUCCUU	0.675
CCUUUUUUGGCAGCUCAGAUGGUGUAAAUUUUAAAAUUUUGUAUAGGUAUUUCAUAACAAAAAUAUGUAUUUCUUUUUUGUUAUUUUAUCUUGAAAACGGUACAUAUUUU	0.943
UUAUGUGGCCGUUUCUUUGUUUCUUUGAACAGUGGGAUUUUCAGUGAAAAAGUACCCUCUUUUUCAUUUCCUAUUGCAGUGGUCACAGCUAAUAGUGUCUGAACAUGGUU	0.255
GCUUGUACGUAGCUUGCCACUCAGUGAAAAUAAUAACAUUAUUAUGAGAAAGUGGACUUAACCGAAAUGGAACCAACUGACAUUCUAUCGUGUUGUACAUAGAAUGAUGA	2.83
GGGCUGCCAUGGUCACAAGCACACUGAUGCUCCUUAAGAUUGUUUAUCUGGAGCCCACAUAGUGUGGAACAAAAAGUCACCUAGAAAGCAUCCUUGGUCAUCAUUGUCUC	0.255
CUGAGCUUUGGGACACAGGACACUGCCAGGGCUACGUAGGGAACUGACUCAGAAGACGCAGCUUACUGCUUCCAACUUUGCACAUCUUCCUCUUUAAAAAACUGAGAAAA	0.246
UACAUUUCACAUUUUGUAUUUUUUUUUAUGUGUGUGUGUCUGUAUUCUGGUGUUUGUAACACCAAAGUGGAAAAUACAGCCCAUGGCAUGGGUGCUGUGAAGUUGAGAUG	1.5

Set 2
Target: Max-binding protein MNT, bHLH-zipper, MAX partner unstated (MNT, Homo sapiens, UniProt Q99583, residues 220-300)
Method: protein-binding microarray
Molecule type: double-stranded DNA, one strand shown
Sample: in vitro
Concentration: not given
Notes: k-mer, scored over probes, only values ≥0.25
Reading: higher = stronger binding
Construct (chain): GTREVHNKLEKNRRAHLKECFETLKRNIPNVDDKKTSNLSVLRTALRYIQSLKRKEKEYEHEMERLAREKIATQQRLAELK
Strand	E-score
CATGCATC	0.29
CTGCGCCA	0.256
CATGGGAG	0.264
AGCCCCGC	0.259
CACGATGC	0.36
CATGTGGA	0.457
AATGTGCT	0.261
AGTACCAC	0.309
AGCACGAT	0.274
GTGCATGA	0.345
ACACGCTG	0.403
CAGGTGTA	0.293
CACGTTAC	0.421
GGCCACGA	0.283

Set 3
Target: ABI1, truncated, D143A, DHFR fusion (Arabidopsis thaliana, UniProt P49597)
Method: DHFR PCA, dose-response
Sample: yeast
Notes: Hill fit, mean, not affinity
With: (+)-ABA, dose series
Reading: lower = more sensitive
Parent: PYL1, truncated, DHFR fusion (Arabidopsis thaliana, UniProt Q8VZS8); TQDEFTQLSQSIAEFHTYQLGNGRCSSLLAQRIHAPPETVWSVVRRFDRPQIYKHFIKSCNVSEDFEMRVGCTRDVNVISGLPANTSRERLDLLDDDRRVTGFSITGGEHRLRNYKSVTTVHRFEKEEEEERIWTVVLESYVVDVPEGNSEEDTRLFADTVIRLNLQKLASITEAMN
Change	ABA EC50
E130T	2.37 µM
R46Y	170 µM
N22F	2.88 µM
T6D	1.47 µM
N77L	4.31 µM
S27C	63 µM
I162M	459 µM
N85A	2.61 µM
T101E	508 µM
Q7M	1.68 µM
K168Y	64.9 µM
E64G	2.72 µM
G23L	18.8 µM
S104A	43 µM
R24L	7.98 µM
R132P	1.59 µM
L28A	72.8 µM

Set 4
Target: Ras GTPase-activating protein-binding protein 1, C-terminal RGG region (G3BP1, Homo sapiens, UniProt Q13283)
Chain of UniProt Q13283 (whole entry, looked up): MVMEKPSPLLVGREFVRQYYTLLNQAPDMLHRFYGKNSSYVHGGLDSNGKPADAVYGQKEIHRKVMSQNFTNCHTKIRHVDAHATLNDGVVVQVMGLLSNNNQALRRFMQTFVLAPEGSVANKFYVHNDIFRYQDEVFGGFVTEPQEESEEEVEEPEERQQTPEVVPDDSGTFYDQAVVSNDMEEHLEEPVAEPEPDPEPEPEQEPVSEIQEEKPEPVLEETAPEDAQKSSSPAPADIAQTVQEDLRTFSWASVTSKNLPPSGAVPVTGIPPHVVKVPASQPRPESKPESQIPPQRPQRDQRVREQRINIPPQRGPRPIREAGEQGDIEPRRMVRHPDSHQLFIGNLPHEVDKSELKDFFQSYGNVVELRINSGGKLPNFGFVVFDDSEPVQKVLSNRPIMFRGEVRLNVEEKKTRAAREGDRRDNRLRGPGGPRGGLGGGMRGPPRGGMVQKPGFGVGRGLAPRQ
Method: RNA Bind-n-Seq
Molecule type: RNA
Sample: in vitro
Concentration: 1 µM
Notes: whole 134-nt RNA, ends assumed
With: 150 mM KCl
Relative to: input library
Reading: higher = stronger binding
Shared flanks, not repeated: GGGAGUUCUACAGUCCGACGAUC … UGGAAUUCUCGGGUGUCAAGG
Strand	log2 enrichment
CACAGACAACACGCACCCGCACAGACACAGAGGGAAGGGGUUGGGAUGGGGACAGGGUGCACAGCAGGGCGGGGUAGGACCCCAGCCCCU	-0.347
UAGUUUAUGCCAACGUGACUUCAUUCAUACAGAUGAACCAAGGAUCGGGAUAGCAGUAUAAAAUUAGAAUCAAGACAGCUGACUGCUCAG	-2.6
UAACUUUAGAGGAGGAUCUGAUGCAUAUGGCAGUGGACGUGGAUUUGGGGAUGGCUAUAAUGGGUAUGGAGGAGGACCUGGAGGUGGCAA	-1.49
UCCUGUGCUACACAUCGUAUGUACCGAAUCGGGGCCCCCGGGCCCCCGGGCCCCCGGGGAAAGUAUUAUGUUACGCCGUUCGGAUCUGCA	-2.28
UUCAAAACAGAAUCCUUCCAGUCCUCUUCAGCGUUUAAUUCCAGGCUCAAACUUGGACAGUGAACCCAGAAUUCAAACAGAUAUACUAAA	-0.215
CCUGUGCUACACAUCGUAUGUACCGAAUCGGGGUUUUUUUGGGGUUUUUUUGGGGAGGGGAAAGUAUUAUGUUACGCCGUUCGGAUCUGC	0.151
AAGUCCUGUGCUACACAUCGUAUGUACCGAAUCGGGGAAAGGGGAAAGGGAAAGGGAAAGUAUUAUGUUACGCCGUUCGGAUCUGCACUU	1.13
UGGGAGGUGGAUUUUGUUUAUUUUUUUAGCUCAUUUCGAGGGGUGGGAAUUUUUUUUUAAUAUGUGUCAUGAAUAAAGUUGUUUUUGAAA	3.73
CUGUGCUACACAUCGUAUGUACCGAAUCGGGGAAAAAGGGGUUUUUUUGGGGUUUUUGGGGAAAGUAUUAUGUUACGCCGUUCGGAUCUG	0.211
CCUGUGCUACACAUCGUAUGUACCGAAUCGGGAAAAAGGGAAAAAAAGGGUUUUUUUGGGAAAGUAUUAUGUUACGCCGUUCGGAUCUGC	-1.71
UUCCUCAAGUCCUGUGCUACACAUCGUAUGUACCGAAUCGGUGGUGGUGGAAAGUAUUAUGUUACGCCGUUCGGAUCUGCACUUCCAGCA	-0.69
GUCCUGUGCUACACAUCGUAUGUACCGAAUCGGGAAAAAAGGAAAAAAGGAAAAAAGGAAAGUAUUAUGUUACGCCGUUCGGAUCUGCAC	-1.53
UCCUGUGCUACACAUCGUAUGUACCGAAUCGGCCCCCCGGGCCCCCCGGGCCCCCCGGGAAAGUAUUAUGUUACGCCGUUCGGAUCUGCA	-1.56
UGGCCCUGGUGGCAUGCGGGGAGGAAGAGGUGGCCUCAUGGAUCGUGGUGGUCCCGGUGGAAUGUUCAGAGGUGGCCGUGGAGGAGACAG	3.44

Set 5
Target: CCND3, cyclin fold, Cln2 fusion (human)
Method: yeast growth competition, sequencing
Sample: yeast
Notes: weak parent motif
Relative to: not given
Reading: higher = stronger binding
Parent: WEE1 docking peptide (human); HKTFRKLRLFDTP
Change	normalised enrichment score
HKTFRKLSLFDTP [R8S]	0.244
HKTFSKLRLFDTP [R5S]	0.0959
HKTFRKLRLPDTP [F10P]	0.134
HKTFRKLRLFDTL [P13L]	0.0798
HKYFRKLRLFDTP [T3Y]	-0.0427
HKTFRKLRSFDTP [L9S]	0.16
HKSFRKLRLFDTP [T3S]	0.0816
HKTFHKLRLFDTP [R5H]	0.287
HKTFRKLRLSDTP [F10S]	0.0842
HKTFRKLRHFDTP [L9H]	0.107
HKTARKLRLFDTP [F4A]	0.21
TKTFRKLRLFDTP [H1T]	0.221
HKTFRKTRLFDTP [L7T]	0.206
HKFFRKLRLFDTP [T3F]	0.0947

Repeated from above (set 2):
Strand	E-score
CAGGTGTA	0.293
CATGGGAG	0.264
CATGCATC	0.29
CACGATGC	0.36
AGCACGAT	0.274
CTGCGCCA	0.256
AATGTGCT	0.261
